Experimental data from different studies.
Every numbered part comes from another study and shows a few of its results, in no order.

Study 1
Species: human
Sample: microsomes or S9
Concentration: 2 µM
Time: 0.5 h
Measurement: remaining compound
CC(=O)/C(=C1\NC(C)(C)Cc2cc(C)c(C)cc21)c1ccccc1: 4.8%
CC(C)c1oc(C2CCCN2S(=O)(=O)c2ccc3c(c2)COC3)nc1-c1ccccc1 (stereo not drawn): 8.76%
CCC(C)c1ccc(-c2c(C)sc(N)c2C#N)cc1 (stereo not drawn): 39.7%
c1ccc2c(c1)oc1c(N3CCN(Cc4ccc5c(c4)OCO5)CC3)ncnc12: 76.1%
O=C(CCCOc1ccc(F)cc1F)Nc1ccc2nc[nH]c(=O)c2c1: 44.1%
COc1ccc(-n2ccnc2-c2nccn2[C@@H]2c3ccccc3C[C@@H]2O)cc1: 39%

Study 2
Target: 5-hydroxytryptamine receptor 1D (HTR1D, Homo sapiens, UniProt P28221)
Chain of UniProt P28221 (whole entry, looked up): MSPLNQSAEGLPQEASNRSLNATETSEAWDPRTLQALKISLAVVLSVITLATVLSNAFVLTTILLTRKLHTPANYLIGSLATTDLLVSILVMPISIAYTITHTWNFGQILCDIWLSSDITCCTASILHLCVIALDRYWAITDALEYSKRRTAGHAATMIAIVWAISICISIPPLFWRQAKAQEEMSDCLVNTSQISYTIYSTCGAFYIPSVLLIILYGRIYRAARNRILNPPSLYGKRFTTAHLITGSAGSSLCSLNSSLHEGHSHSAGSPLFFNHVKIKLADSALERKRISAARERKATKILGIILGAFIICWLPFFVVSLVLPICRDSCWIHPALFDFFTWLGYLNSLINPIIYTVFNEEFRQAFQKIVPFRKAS
Observed: cell-free assay
Concentration: 10 µM
Measurement: inhibition
NC(=O)c1ccc2nc(-c3ccc(C4(N)CCC4)cc3)c(-c3ccccc3)n2n1: 12.2%
Nc1nc(NCc2ccccc2)nc(-c2cccc(CO)c2)n1: 13.7%
Cc1c(N2CCCC2)nc2ccc(Br)cc2c1C(=O)NC[C@H](CCC(=O)O)c1ccccc1Cl: -21%
CCC(F)(F)c1cc(N2CCC(S(C)(=O)=O)CC2)nc2sc(C(N)=O)c(N)c12: 26.9%
COc1cc(N[C@@H]2CCCC[C@]2(O)C(F)(F)F)ccc1F: 2.77%
NS(=O)(=O)c1cc(NC(=O)Cc2ccccc2)ccc1Oc1cccc(Cl)c1: 1.74%
O=C(Nc1cccnn1)N1CC(CC=Cc2cncc(Oc3ccc(C(F)(F)F)cn3)n2)C1: -2.98%
Cc1ccccc1Oc1cc(-n2c(=O)cc(C(F)(F)F)[nH]c2=O)c2ccccc2c1Cl: 0.75%
Nc1nc(NCc2ccccc2)nc(-c2ccccc2CO)n1: 11.2%
Cc1noc([C@H]2C[C@@H](c3ccc(C(F)(F)F)cc3)CN(C(=O)N3CCS(=O)(=O)C3)C2)n1: -9.27%
COc1cc(C(=O)O)ncc1C#Cc1ccccc1NS(=O)(=O)c1cccc2c(N(C)C)ccnc12: 11.4%
C[C@H](c1ccc(F)cc1)N(Cc1ccc(Cl)c(C(=O)O)c1)C(=O)c1cnc2ccccc2c1: -23.1%
COc1cccc(NC(=O)c2nc3scc(CN(C)Cc4ccccc4)c3c(=O)[nH]2)c1: -0.959%

Study 3
Structure (SMILES): CC(C)n1cnc(-c2ccc(F)cc2)c1-c1ncc(C(=O)Nc2ccc(N3CCN(C)CC3)cc2)[nH]1
Method: phase 2a trial
Species: idiopathic pulmonary fibrosis patients
Measurement: patients with coagulopathy
60 mg once daily, adverse event grade 2: 0%
60 mg once daily, adverse event grade 3: 0%
30 mg once daily, adverse event grade 2: 0%
dose not given, adverse event grade 5, all dose arms pooled: 0%
dose not given, adverse event grade 4, all dose arms pooled: 0%

Study 4
Target: Serine/threonine-protein kinase D2 (PRKD2, Homo sapiens, UniProt Q9BZL6)
Observed: enzyme activity
Mode: inhibitor
Concentration: 0.5 µM
Relative to: control
Measurement: remaining activity
Construct (Q9BZL6 1-878): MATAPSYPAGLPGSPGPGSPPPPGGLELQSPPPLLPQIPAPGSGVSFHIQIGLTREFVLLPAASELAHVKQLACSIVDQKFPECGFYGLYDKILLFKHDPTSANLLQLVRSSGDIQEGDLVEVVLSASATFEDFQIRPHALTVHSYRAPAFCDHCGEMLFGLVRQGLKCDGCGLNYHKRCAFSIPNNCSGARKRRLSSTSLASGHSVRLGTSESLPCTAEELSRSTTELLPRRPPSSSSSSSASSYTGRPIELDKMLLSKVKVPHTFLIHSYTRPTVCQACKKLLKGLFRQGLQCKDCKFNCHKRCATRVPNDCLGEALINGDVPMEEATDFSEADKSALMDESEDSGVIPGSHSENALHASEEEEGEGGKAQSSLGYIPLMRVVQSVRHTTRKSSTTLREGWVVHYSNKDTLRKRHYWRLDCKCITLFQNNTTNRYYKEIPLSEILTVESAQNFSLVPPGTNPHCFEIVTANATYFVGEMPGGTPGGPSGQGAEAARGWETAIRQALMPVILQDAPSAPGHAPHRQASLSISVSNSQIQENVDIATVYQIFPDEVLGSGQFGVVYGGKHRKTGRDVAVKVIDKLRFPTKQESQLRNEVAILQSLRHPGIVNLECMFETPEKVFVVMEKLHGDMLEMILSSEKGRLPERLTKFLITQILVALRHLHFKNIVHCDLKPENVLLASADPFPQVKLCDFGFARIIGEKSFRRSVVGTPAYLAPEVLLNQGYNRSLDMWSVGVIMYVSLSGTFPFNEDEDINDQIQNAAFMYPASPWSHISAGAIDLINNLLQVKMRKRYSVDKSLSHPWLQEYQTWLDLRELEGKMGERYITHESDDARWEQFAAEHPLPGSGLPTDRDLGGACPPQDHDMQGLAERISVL
Cc1cccc(-c2[nH]c(C(C)(C)C)nc2-c2ccc3c(c2)OCO3)n1: 93.6%
O=C(Nc1cccc(Nc2cc(Nc3cccc(C(F)(F)F)c3)ncn2)c1)C1CC1: 103%
COc1ccc(OC)c2c(=S)c3ccccc3[nH]c12: 88.1%
OCC(O)CCON=C1C(c2c(O)[nH]c3ccccc23)=Nc2ccccc21 (stereo not drawn): 74.3%
Cn1sc(=O)n(Cc2ccccc2)c1=O: 95.1%
CCOC(=O)c1c(C)[nH]c(/C=C2\C(=O)Nc3ccccc32)c1C: 97.1%
O=C(O)c1ccc2c3c1cccc3c(=O)n1c3ccccc3nc21: 86.8%
Cc1nc(-c2ccccc2)c(-c2ccncc2)o1: 97.7%
N#CC(C#N)=C(N)/C(C#N)=C/c1ccc(O)cc1: 100%
COc1cc2nccc(Oc3ccc(NC(=S)NC(=O)c4ccccc4C)cc3)c2cc1OC: 86.8%
Cn1c2ccccc2c2c3c(c4c5ccccc5n(CCC#N)c4c21)CNC3=O: 18.7%
O=S(=O)(c1cccc2cnccc12)N1CCCNCC1: 85%
CC(C)[C@H](CO)Nc1nc(Nc2cc(N)cc(Cl)c2)c2ncn(C(C)C)c2n1: 103%
C#Cc1cccc(Nc2ncnc3cc(OCCOC)c(OCCOC)cc23)c1: 85.9%
O=c1c2ccccc2[nH]c(=S)n1CCN1CCC(=C(c2ccc(F)cc2)c2ccc(F)cc2)CC1: 98.9%
